{"data": "Measurements pooled from the literature", "note": "Parts stem from different laboratories: compare values within a part only."}
{"data": "Study 1", "target": "RNA binding protein fox-1 homolog 2, RRM domain, GST-SBP tag (RBFOX2, Homo sapiens, UniProt O43251-10, residues 100-194)", "technique": "RNA Bind-n-Seq", "molecule type": "RNA", "matrix": "in vitro", "tested at": "365 nM", "setting": "natural RNA segment, single round, ends assumed", "relative to": "no-protein control", "reading": "higher = stronger binding", "shared flanks, not repeated": "GGGAGUUCUACAGUCCGACGAUC … UGGAAUUCUCGGGUGCCAA", "Residues (chain)": "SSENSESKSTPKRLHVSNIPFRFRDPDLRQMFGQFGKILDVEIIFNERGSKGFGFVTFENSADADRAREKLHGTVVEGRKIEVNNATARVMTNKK"}
{"Strand": "AACAUAUUGUGCCAGUGUUGCAACGUUUUAAACUGCUAACAGACCUUAAAAUAUCCCCCUACCUGGGUCCUCAGUGCUAUGUUUAAAGUGCUGCAGGGAUGGAGUGGCGU", "RBNS enrichment (R)": 0.45}
{"Strand": "AGAGGUCCAAGAACAUGUAUUAUCCAGACUAAAAAAAUGAUUUUUUGUUGUUAUGGUUUACGUGAUGAAAAGGAGAAAAAACAGAAUCAUACCUGGGUGGAGAGAGGGAG", "RBNS enrichment (R)": 0.765}
{"Strand": "GCCAGACCUCCUGACCCAAACACAGGGUCAGCCACUGAGGUUCCUGACUUAUCAGUGCCCAUCACUAUCUGGCGUUCUGAAAGUCCCAUAGAAAAGUGUCAGGAAAGCAA", "RBNS enrichment (R)": 0.247}
{"Strand": "UCAACAUAAACUUGUCUGACAGCAAAUAGUCAGAUGCUGCAGUGUUUGGAAAUGAUGUACAUCUUGACCAUUGCACUGUUGGAACUUAGUCCCUUCUGUUUUAAAGGAGG", "RBNS enrichment (R)": 0.276}
{"Strand": "GCACCCUGAGCUGGCAGUCCUGGCCGACGCAGUUGACCUCCAGGAGUCCACAGGCAUUGCCUCUGACAGCUCCAGCGACUCUUCUAGCUCCUCUAGUUCCAGCUCGUCAG", "RBNS enrichment (R)": 0.5}
{"Strand": "GUUUUACAAAUUUAAUUUUGCAGAUUAUUUUAGUCUGUCAUCCAGAAAAUGUGUCAGCAUGCAUAGUGCUAAGAAAGCAAGCCAAUUUGGAAACUUAGGUUAGUGACAAA", "RBNS enrichment (R)": 1.78}
{"Strand": "GGUGGUUGGCCAGAGAUGGGGAACAGCCAGGUGCCCCAGUCCUCUGAUUUUUCCUCCAUCCUGCUUACCACCUCCCUGGGUACUUACAGCCUUCUCUUGGGAACAGCCGG", "RBNS enrichment (R)": 0.23}
{"Strand": "CCAUACACUUUAGAAGAACGCUUCUCUUCUAUUCCAAUAAAAAGUCCUUUUAGCAAUGCAACAUAUUAACAAAAUUGGGUGCAUUCAGGGUGGUAUGGCCAUAGACCAGA", "RBNS enrichment (R)": 0.366}
{"Strand": "CGGGCUUUUGUAUAUUACCUGCUGAUCUUGUACACUUAAUCUGUUUACUGUUGUUCACAGAUGAAAACAGAUACGCUAGGGCUAGUUUUGAAAAACACUAAUUCUCUUCA", "RBNS enrichment (R)": 0.464}
{"Strand": "ACAAGAGACUCUCUUUUUAAUUCCUUGAGUACCCUUUGCCCCACUUCCAAGAGAGGACAGCAAGUCCCCUGACACUGCAAAUUUCAUUUGAGCCUAGGGAGCUGGGAAAA", "RBNS enrichment (R)": 0.557}
{"Strand": "CUGUACUGCAGCCAAGGUGACGUGUGACUUGGAUUUGAGUGGAGUUGGGCUUAGCCUUAGUCUCAUUCAAUCUCCAUUAUUACAGCCAUGGGGAAGAGUGAAAGAUAUAA", "RBNS enrichment (R)": 0.611}
{"Strand": "AACAAGAUCACCCAGCAUCCUUCCCCACCCCAGCUGUGUAUUUAUAUAGAUGGAAAUAUACUUUAUAUUUUGUAUCAUCGUGCCUAUAGCCGCUGCCACCGUGUAUAAAU", "RBNS enrichment (R)": 0.549}
{"data": "Study 2", "target": "Centromere-binding protein 1, full length, His-tagged (CBF1, Saccharomyces cerevisiae, UniProt P17106, residues 1-351)", "technique": "competition protein-binding microarray", "molecule type": "double-stranded DNA, one strand shown", "matrix": "in vitro", "tested at": "2 µM", "setting": "whole 60-bp probe, lowest competitor level", "together with": "Pho4 competitor, 0.05 µM", "reading": "higher = stronger binding", "shared flanks, not repeated": "… GTCTTGATTCGCTTGACGCTGCTG", "sequence of UniProt P17106 (whole entry, looked up)": "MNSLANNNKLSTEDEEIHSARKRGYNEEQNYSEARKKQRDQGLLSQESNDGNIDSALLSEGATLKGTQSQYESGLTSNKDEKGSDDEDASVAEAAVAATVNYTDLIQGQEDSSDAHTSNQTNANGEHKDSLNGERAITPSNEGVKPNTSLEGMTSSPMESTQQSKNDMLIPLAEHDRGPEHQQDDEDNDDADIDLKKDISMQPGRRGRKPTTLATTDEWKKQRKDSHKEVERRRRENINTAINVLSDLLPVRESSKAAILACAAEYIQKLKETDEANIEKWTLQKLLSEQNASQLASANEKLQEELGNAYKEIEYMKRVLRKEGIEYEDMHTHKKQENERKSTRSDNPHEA"}
{"Strand": "GAGTTATAATTTCACCACGTGAGCCCGATGAAATAG", "fluorescence intensity [a.u.]": 2130}
{"Strand": "CTTGTTATTTACGGCCACGGGGACACTATTATGGTT", "fluorescence intensity [a.u.]": 512}
{"Strand": "GTATAATCTCTGAGGTGCGTGGTGAGGGACTGCTTA", "fluorescence intensity [a.u.]": 65.7}
{"Strand": "CTAACGAAGGTTTGTCACCTAACTTACAAGCCAAGT", "fluorescence intensity [a.u.]": 70.8}
{"Strand": "CATACCCAACCTTTTCACGTGCTATAAGATATTTGT", "fluorescence intensity [a.u.]": 1500}
{"Strand": "CATACCCAACCTTGACTGGTGGGTGAAGATATTTGT", "fluorescence intensity [a.u.]": 62.4}
{"Strand": "TCACTTTGTCGTCTTCATGTGGGAGTCGGGGCTGTT", "fluorescence intensity [a.u.]": 73}
{"Strand": "ATATTTTGGTAGCGCCGCGTGGGTAACAATGCAGTA", "fluorescence intensity [a.u.]": 143}
{"Strand": "CGACGGAACCCAGGACACGTAATGAGGAAGTTTCAT", "fluorescence intensity [a.u.]": 83.2}
{"Strand": "AAATTACTAAGTTGACTCGTGGGTGACGCCGTATGA", "fluorescence intensity [a.u.]": 80.1}
{"Strand": "TGCGCAACAACTTGAGATGTGGGTGTATGTCTAGAA", "fluorescence intensity [a.u.]": 69.3}
{"Strand": "CTTCTGTAAATTTGCACCGTGGGTGGACGCGCCCCG", "fluorescence intensity [a.u.]": 72.8}
{"Strand": "TTTCTTCGTCTTCGTCCCGTGAGTCCGGACTCAGAA", "fluorescence intensity [a.u.]": 117}
{"Strand": "GTAAGTGAGATAATCCACGTGCTTTAAAGAAGTTGT", "fluorescence intensity [a.u.]": 1650}
{"Strand": "CTAACGAAGGTTTGCAAAGTGGGTGACAAGCCAAGT", "fluorescence intensity [a.u.]": 72}
{"Strand": "CATACCCAACCTTGAAGGGTGGGTGAAGATATTTGT", "fluorescence intensity [a.u.]": 59.1}
{"Strand": "AAAAGAAACAAAGCAAGCGTGCCGAGACTTAGGGTT", "fluorescence intensity [a.u.]": 62.3}
{"Strand": "TGAATAGCAGCATTCAATGTGACGAACAACCCGGAG", "fluorescence intensity [a.u.]": 58.5}
{"Strand": "GTCTTGTCTCATTGGTCAGTGGGTGTCCCCACTTCA", "fluorescence intensity [a.u.]": 86.9}
{"Strand": "CATACCCAACCTTTTCACGTGTCGTAAGATATTTGT", "fluorescence intensity [a.u.]": 835}
{"Strand": "GTTGGGTTCTACCGTCACGCAATTGCTTCAAGGACC", "fluorescence intensity [a.u.]": 95.6}
{"Strand": "ATGCGAGCGAACCGGCACATGTACCAAACTTTATCA", "fluorescence intensity [a.u.]": 148}
{"Strand": "TCGCCCAATGAGACGCACAATCAAGGCTATGGCTCG", "fluorescence intensity [a.u.]": 56.6}
{"Strand": "CTGTGCCACCATTTGCACGTTGGCATCCGCGTCCTT", "fluorescence intensity [a.u.]": 86.4}
{"Strand": "TGCGCAACAACTTTTCACGTGACATTATGTCTAGAA", "fluorescence intensity [a.u.]": 4170}
{"data": "Study 3", "target": "Prothrombin, mature alpha-thrombin (F2, Homo sapiens, UniProt P00734)", "technique": "aptamer microarray, sandwich", "molecule type": "DNA with 2'F-ANA", "matrix": "in vitro", "tested at": "200 nM", "setting": "whole 15-mer aptamer, many near background", "together with": "Cy3 exosite-II aptamer, 400 nM", "reading": "higher = stronger binding", "strand": "GGTTGGTGTGGTTGG"}
{"Modification": "2'F-ANA at 1 5 6 7 8 9 10 11 12 13 14 15", "mean fluorescence intensity [a.u.]": 53.5}
{"Modification": "2'F-ANA at 1 2 6 7 8 10 15", "mean fluorescence intensity [a.u.]": 55.7}
{"Modification": "2'F-ANA at 1 6 7 8 10 13 14 15", "mean fluorescence intensity [a.u.]": 48.1}
{"Modification": "2'F-ANA at 2 3 4 7 8 10 12 14 15", "mean fluorescence intensity [a.u.]": 193}
{"Modification": "2'F-ANA at 1 4 5 10 11 12 13 14 15", "mean fluorescence intensity [a.u.]": 53.1}
{"Modification": "2'F-ANA at 1 2 3 6 8 9 11 13 15", "mean fluorescence intensity [a.u.]": 152}
{"Modification": "2'F-ANA at 1 3 4 5 8 9 10 12 13 15", "mean fluorescence intensity [a.u.]": 47.3}
{"Modification": "2'F-ANA at 1 2 3 4 5 7 10 11 12 13", "mean fluorescence intensity [a.u.]": 50.9}
{"Modification": "2'F-ANA at 1 3 4 7 8 9 10 11 12 14", "mean fluorescence intensity [a.u.]": 77.8}
{"Modification": "2'F-ANA at 1 5 7 9 10 11 13 14 15", "mean fluorescence intensity [a.u.]": 49.2}
{"Modification": "2'F-ANA at 4 6 7 11", "mean fluorescence intensity [a.u.]": 239}
{"Modification": "2'F-ANA at 1 4 5 7 11 12 13", "mean fluorescence intensity [a.u.]": 69.2}
{"Modification": "2'F-ANA at 1 3 4 5 7 10 13 14", "mean fluorescence intensity [a.u.]": 79.4}
{"Modification": "2'F-ANA at 1 2 5 7 9 13", "mean fluorescence intensity [a.u.]": 48.2}
{"Modification": "2'F-ANA at 1 3 4 5 7 9 10 11 12 15", "mean fluorescence intensity [a.u.]": 59.1}
{"Modification": "2'F-ANA at 5 6 7 8 10 13 15", "mean fluorescence intensity [a.u.]": 53.5}
{"Modification": "2'F-ANA at 1 4 13 14 15", "mean fluorescence intensity [a.u.]": 46.4}
{"Modification": "2'F-ANA at 1 2 3 7 8 10 11 15", "mean fluorescence intensity [a.u.]": 64.9}
{"Modification": "2'F-ANA at 1 2 4 6 8 12 15", "mean fluorescence intensity [a.u.]": 312}
{"Modification": "2'F-ANA at 3 7 8 12 14 15", "mean fluorescence intensity [a.u.]": 845}
{"Modification": "2'F-ANA at 4 5 6 8 10 14 15", "mean fluorescence intensity [a.u.]": 45.3}
{"Modification": "2'F-ANA at 1 4 5 6 7 10 11", "mean fluorescence intensity [a.u.]": 64.5}
{"Modification": "2'F-ANA at 1 2 4 5 7 8 9 10", "mean fluorescence intensity [a.u.]": 51.7}
{"Modification": "2'F-ANA at 2 3 4 5 7 9 11 13 14", "mean fluorescence intensity [a.u.]": 47.6}
{"Modification": "2'F-ANA at 2 3 6 8 11 12", "mean fluorescence intensity [a.u.]": 894}
{"data": "Study 4", "target": "Sal-like protein 4, full length isoform A (SALL4, Homo sapiens, UniProt Q9UJQ4, residues 1-1053)", "technique": "universal PBM", "molecule type": "double-stranded DNA, one strand shown", "matrix": "in vitro", "tested at": "600 nM", "setting": "8-mer, flanks averaged, mean of replicates", "reading": "higher = stronger binding", "sequence of UniProt Q9UJQ4 (whole entry, looked up)": "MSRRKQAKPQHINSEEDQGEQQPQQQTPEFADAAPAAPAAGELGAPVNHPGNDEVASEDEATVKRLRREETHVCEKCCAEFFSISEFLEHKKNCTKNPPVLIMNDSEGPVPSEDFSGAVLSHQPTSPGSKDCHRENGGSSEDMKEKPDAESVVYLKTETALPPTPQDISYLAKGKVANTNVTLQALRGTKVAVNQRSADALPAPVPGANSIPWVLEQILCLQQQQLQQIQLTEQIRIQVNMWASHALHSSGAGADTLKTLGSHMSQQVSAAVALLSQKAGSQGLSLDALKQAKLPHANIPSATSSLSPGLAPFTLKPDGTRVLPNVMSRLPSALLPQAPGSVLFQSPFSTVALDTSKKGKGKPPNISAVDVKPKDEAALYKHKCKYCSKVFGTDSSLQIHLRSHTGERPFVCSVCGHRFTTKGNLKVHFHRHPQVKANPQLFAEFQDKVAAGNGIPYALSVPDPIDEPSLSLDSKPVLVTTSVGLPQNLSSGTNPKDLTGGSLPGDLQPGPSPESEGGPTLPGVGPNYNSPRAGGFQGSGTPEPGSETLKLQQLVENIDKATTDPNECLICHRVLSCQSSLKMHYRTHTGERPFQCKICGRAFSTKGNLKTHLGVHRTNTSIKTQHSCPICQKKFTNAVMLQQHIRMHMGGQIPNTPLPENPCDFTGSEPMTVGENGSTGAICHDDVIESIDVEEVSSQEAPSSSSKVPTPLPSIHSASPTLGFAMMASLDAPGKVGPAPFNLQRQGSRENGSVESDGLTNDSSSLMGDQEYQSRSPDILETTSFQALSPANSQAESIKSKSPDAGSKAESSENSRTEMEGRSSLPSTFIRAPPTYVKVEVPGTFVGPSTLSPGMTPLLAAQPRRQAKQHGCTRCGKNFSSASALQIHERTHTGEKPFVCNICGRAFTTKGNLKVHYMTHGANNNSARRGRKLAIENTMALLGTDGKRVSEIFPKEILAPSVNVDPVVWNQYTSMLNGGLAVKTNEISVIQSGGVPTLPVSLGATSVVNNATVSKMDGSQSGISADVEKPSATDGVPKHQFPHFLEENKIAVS"}
{"Strand": "CCCTAACG", "E-score": 0.0401}
{"Strand": "CGCCGTAA", "E-score": -0.227}
{"Strand": "TAATGACA", "E-score": 0.216}
{"Strand": "AAGGTAGA", "E-score": 0.133}
{"Strand": "CCTTTTTC", "E-score": 0.0331}
{"Strand": "AGACCGGA", "E-score": -0.233}
{"Strand": "AGACTACC", "E-score": -0.00912}
{"Strand": "GATGGTAC", "E-score": -0.0885}
{"Strand": "AGGGCCAA", "E-score": -0.167}
{"Strand": "ACTAATCT", "E-score": 0.148}
{"Strand": "GGCGTCCA", "E-score": -0.235}
{"Strand": "GGGTACCA", "E-score": -0.274}
{"Strand": "GACACGGC", "E-score": -0.209}
{"Strand": "ACATCCGC", "E-score": -0.114}
{"Strand": "AACATCCC", "E-score": -0.151}
{"Strand": "GGGTCAAA", "E-score": -0.117}
{"Strand": "GCGTAAAC", "E-score": -0.0861}
